Results collected from several papers.
Numbered parts are unrelated; each lists some results of a single study.

Set 1
Target: Interferon regulatory factor 5, full length, phosphomimetic (IRF5, Homo sapiens, UniProt Q13568-2, residues 1-514, S451D/S453D/S456D/S462D)
Method: protein-binding microarray
Form: double-stranded DNA, one strand shown
Matrix: in vitro
Tested at: 940 nM top
Notes: 60-bp whole probe
Together with: salmon DNA 0.4 mg/ml
Reference: random background probes
Direction: higher = stronger binding
All sequences stand within: GCCTAGCAC … GTCTTGATTCGCTTGACGCTGCTG
Under “fitted relative affinity”, `GACGATTTCTGGTATCGAGACGTGCTA` is recorded as 2.54 z-score.
Under “fitted relative affinity”, `GACGATTTCGGGTATCGCGACGTGCTA` is recorded as 0.633 z-score.
For `TATAATTTTGTCATCTATAAGTGCTAG`, “fitted relative affinity” read 0.903 z-score.
For `TTAGGACTGGGTTTCGTTTAGTGCTAG`, “fitted relative affinity” read 3.67 z-score.
`GACAATATCAGTCTCGAGACGTGCTAG`: “fitted relative affinity” 1.19 z-score.
For `TCAGCTCTGTGCTTTCCTACTGTGCTA`, “fitted relative affinity” read 0.0283 z-score.

Set 2
Target: Histone acetyltransferase KAT6A, winged helix 2, GST fusion (KAT6A, Homo sapiens, UniProt Q92794, residues 85-181)
Method: protein binding microarray
Form: double-stranded DNA, one strand shown
Matrix: in vitro
Tested at: not given
Notes: 8-mer, flanks averaged, mean of 2 arrays, mostly near background
Reference: not given
Direction: higher = stronger binding
Residues (chain): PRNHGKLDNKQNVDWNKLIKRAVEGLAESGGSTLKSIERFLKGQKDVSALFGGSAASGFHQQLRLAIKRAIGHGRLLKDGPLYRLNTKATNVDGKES
The E-score of `GAAACGAA` is reported as 0.041.
The E-score of `AGCCTGAT` is reported as 0.0944.
`CTCTCCCC` gave an E-score of 0.0858.
For `ATGCGTCC`, the E-score was 0.0254.
The E-score of `GATAGCGA` is reported as 0.00694.
The E-score of `CACTCACC` is reported as -0.0164.

Set 3
Target: Centromere-binding protein 1, full length, His-tagged (CBF1, Saccharomyces cerevisiae, UniProt P17106, residues 1-351)
Chain of UniProt P17106 (whole entry, looked up): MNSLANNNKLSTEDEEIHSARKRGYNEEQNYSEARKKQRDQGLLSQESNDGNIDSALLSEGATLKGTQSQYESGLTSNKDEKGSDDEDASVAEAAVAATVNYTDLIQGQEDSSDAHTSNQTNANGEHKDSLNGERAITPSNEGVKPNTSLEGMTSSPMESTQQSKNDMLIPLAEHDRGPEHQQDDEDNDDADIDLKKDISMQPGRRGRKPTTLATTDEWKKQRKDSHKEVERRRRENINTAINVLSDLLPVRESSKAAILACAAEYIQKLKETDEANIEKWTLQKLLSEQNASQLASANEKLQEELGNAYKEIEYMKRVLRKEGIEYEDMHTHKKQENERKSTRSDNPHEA
Method: competition protein-binding microarray
Form: double-stranded DNA, one strand shown
Matrix: in vitro
Tested at: 2 µM
Notes: whole 60-bp probe, lowest competitor level
Together with: Pho4 competitor, 0.05 µM
Direction: higher = stronger binding
The fluorescence intensity of `GCTCTTAAGTCCTCGGTCGTGATGGCGTCAGCCTGTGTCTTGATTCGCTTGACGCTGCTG` is reported as 70.6 a.u.
`CCAGGGCCAGGGACTCACGTGTGAAGGTCTGCAGCCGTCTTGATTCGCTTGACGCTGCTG` has a fluorescence intensity of 495 a.u.
`ACACCAAACCTCTTCCACGTGTTTTTCTTGGTGGATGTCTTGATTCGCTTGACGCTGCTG` gave a fluorescence intensity of 821 a.u.
With `AAATTACTAAGTTGTCACGGAACTTACCCCGTATGAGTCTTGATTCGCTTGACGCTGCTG` the fluorescence intensity was 83.1 a.u.
`AGCAGGAATCATACCCACGCATCTCATTTTGCGTTAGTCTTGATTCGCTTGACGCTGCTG` gave a fluorescence intensity of 82.3 a.u.
For `CTTTCCCGATCTTGCCAAGTGGGTGTAGCACATTTGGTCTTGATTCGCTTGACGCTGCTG`, the fluorescence intensity was 63.2 a.u.

Single results of other studies
With `PhoQ, residues 284 288 289 292 302 303 TLSLKA` the fold induction was 0.295 (PhoP, residues 12 14 15 18 19 AQCLL (Escherichia coli, UniProt P23836); Sort-seq, measured: YFP reporter; E. coli; PhoQ-PhoP variant library, together with: 10 µM Mg2+; reference: high Mg2+ state, higher = stronger signaling).

A few entries again (set 2):
The E-score of `GAAACGAA` is reported as 0.041.
The E-score of `GATAGCGA` is reported as 0.00694.
The E-score of `AGCCTGAT` is reported as 0.0944.
